Measured values collected from several papers.
Protocols differ between the studies behind these lines. Values joined by “and” are separate records of one study, mostly repeats; a detail may differ.

| SMILES | system | setting | Stokes shift |
| --- | --- | --- | --- |
| COC(=O)c1ccccc1-c1c2ccc(=O)cc-2oc2c1ccc1cccc(OC)c12 | phosphate buffer 10% DMSO | pH 7.4 | 50 nm |
| Nc1ncnc2c1nc(-n1nnc3c1CCC1C(CO)C1CC3)n2C1CC(O)C(CO)O1 (mixture of isomers) | methanol |  | 107 nm |
| COC(=O)c1ccccc1-c1c2ccc(=[N+](C)C)cc-2oc2c1ccc1cccc(O)c12 | aqueous HCl 10% DMSO | pH 1.9 | 47 nm |
| NCCC(=O)N1Cc2ccccc2-c2c(nnn2-c2nc3c(N)ncnc3n2C2OC(CO)C(O)C2O)-c2ccccc21 (mixture of isomers) | methanol |  | 80 nm |
| COc1cc(OC)cc(C2=C3C(C)=C(I)C(/C=C/c4cccs4)=[N+]3[B-](F)(F)n3c(/C=C/c4cccs4)c(I)c(C)c32)c1 | DMSO |  | 364 cm⁻¹ |
| Nc1ncnc2c1nc(-n1nnc3c1CCC1C(CO)C1CC3)n2C1OC(CO)C(O)C1O (mixture of isomers) | methanol |  | 83 nm |
| COc1cc(OC)cc(C2=C3C(C)=C(I)C(C)=[N+]3[B-](F)(F)n3c(/C=C/c4c[nH]c5ccc([N+](=O)[O-])cc45)c(I)c(C)c32)c1 | THF |  | 592 cm⁻¹ |
| CC1(C)C(/C=C/C2=C(Cl)C(=C/C=C3/N(CCCCCC(=O)O)c4ccccc4C3(C)C)/C[N+](C)(C)C2)=[N+](CCCCCC(=O)O)c2ccccc21 | 10 mM PBS | pH 7.4 | 23 nm |
| CCn1cc(/C=C/c2sc3ccccc3[n+]2CC)c2ccccc21 | DMSO |  | 69 nm |
| COc1cc(OC)cc(C2=C3C(C)=C(I)C(/C=C/c4c[nH]c5ccc([N+](=O)[O-])cc45)=[N+]3[B-](F)(F)n3c(/C=C/c4c[nH]c5ccc([N+](=O)[O-])cc45)c(I)c(C)c32)c1 | THF |  | 500 cm⁻¹ |
| COC(=O)c1ccccc1-c1c2ccc(=O)cc-2oc2c1ccc1cccc(O)c12 | aqueous HCl 10% DMSO | pH 1.9 | 70 nm |
| CCn1cc(/C=C/c2ccc3ccccc3[n+]2CC)c2ccccc21 | PBS |  | > 70 nm and 87 nm |
| COc1cc(OC)cc(C2=C3C(C)=C(I)C(C)=[N+]3[B-](F)(F)n3c(/C=C/c4cccs4)c(I)c(C)c32)c1 | dichloromethane |  | 301 cm⁻¹ |
| CC1(C)C(=CC=C(C=CC2=[N+](CCC[N+](C)(C)C)c3ccc(S(=O)(=O)[O-])cc3C2(C)C)CCC(=O)[O-])N(CCC[N+](C)(C)C)c2ccc(S(=O)(=O)[O-])cc21 | 100% serum | pH 7.4 | 18 nm |

Excerpt of the above:
| SMILES | system | setting | Stokes shift |
| --- | --- | --- | --- |
| COC(=O)c1ccccc1-c1c2ccc(=O)cc-2oc2c1ccc1cccc(OC)c12 | phosphate buffer 10% DMSO | pH 7.4 | 50 nm |
| Nc1ncnc2c1nc(-n1nnc3c1CCC1C(CO)C1CC3)n2C1CC(O)C(CO)O1 (mixture of isomers) | methanol |  | 107 nm |
